Measurements from different studies.
A part holds a random share of what one study measured. Substitutions count along the parent as printed.

Set 1 — technique: universal PBM; molecule type: double-stranded DNA, one strand shown; sample: in vitro; concentration: 600 nM; reading: higher = stronger binding
Target: Sal-like protein 4, full length isoform A (SALL4, Homo sapiens, UniProt Q9UJQ4, residues 1-1053)
Chain of UniProt Q9UJQ4 (whole entry, looked up): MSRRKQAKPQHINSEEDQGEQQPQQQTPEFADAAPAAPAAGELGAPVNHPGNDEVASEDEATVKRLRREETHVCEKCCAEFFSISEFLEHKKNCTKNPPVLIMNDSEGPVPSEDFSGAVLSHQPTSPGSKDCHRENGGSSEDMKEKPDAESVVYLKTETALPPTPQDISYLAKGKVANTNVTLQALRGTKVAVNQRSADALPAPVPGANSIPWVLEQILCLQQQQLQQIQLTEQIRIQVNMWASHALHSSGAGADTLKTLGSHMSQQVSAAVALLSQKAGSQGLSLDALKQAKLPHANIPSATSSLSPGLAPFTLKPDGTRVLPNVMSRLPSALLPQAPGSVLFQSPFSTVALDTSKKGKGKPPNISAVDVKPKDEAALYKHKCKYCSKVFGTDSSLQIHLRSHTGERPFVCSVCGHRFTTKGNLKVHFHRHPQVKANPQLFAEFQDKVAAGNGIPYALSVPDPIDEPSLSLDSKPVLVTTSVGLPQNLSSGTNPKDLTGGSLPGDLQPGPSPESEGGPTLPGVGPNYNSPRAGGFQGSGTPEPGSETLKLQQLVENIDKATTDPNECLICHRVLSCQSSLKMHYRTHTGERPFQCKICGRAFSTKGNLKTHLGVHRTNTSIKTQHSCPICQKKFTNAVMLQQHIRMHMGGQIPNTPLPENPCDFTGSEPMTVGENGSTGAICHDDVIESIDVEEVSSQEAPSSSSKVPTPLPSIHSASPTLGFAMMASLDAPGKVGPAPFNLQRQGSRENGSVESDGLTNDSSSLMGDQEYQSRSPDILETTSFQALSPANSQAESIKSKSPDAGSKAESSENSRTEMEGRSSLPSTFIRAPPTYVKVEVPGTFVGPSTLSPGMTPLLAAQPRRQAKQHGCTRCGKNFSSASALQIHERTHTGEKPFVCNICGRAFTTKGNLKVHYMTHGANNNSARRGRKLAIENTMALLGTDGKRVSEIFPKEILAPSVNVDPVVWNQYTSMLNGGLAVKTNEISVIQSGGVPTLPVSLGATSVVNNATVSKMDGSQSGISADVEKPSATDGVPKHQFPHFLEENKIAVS
Notes: 8-mer, flanks averaged, mean of replicates
Sequence	E-score
ACAACTAT	0.203
ACGTACCA	-0.0405
CGAATCCA	-0.118
ATACGGAA	0.0875
CCATCGCG	-0.0645
CTGGTCGA	-0.292
TCAGCCGA	-0.16
AAACTTCG	-0.0133
CCCCCCGG	-0.483

Set 2 — technique: RNA Bind-n-Seq; molecule type: RNA; sample: in vitro; concentration: 200 nM; notes: whole 134-nt RNA, ends assumed; together with: 150 mM LiCl; reference: input library; reading: higher = stronger binding; each molecule: 7-deaza-guanosine replaces G
Target: Fragile X messenger ribonucleoprotein 1, C-terminal low-complexity region (Fmr1, Mus musculus, UniProt P35922)
Sequence	log2 enrichment
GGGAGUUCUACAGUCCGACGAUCGUCCUGUGCUACACAUCGUAUGUACCGAAUCGGGUUUUUGGUUUUUGGGGUUUUUGGGGAAAGUAUUAUGUUACGCCGUUCGGAUCUGCAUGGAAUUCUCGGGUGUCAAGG	-0.929
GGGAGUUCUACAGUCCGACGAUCAGUCCUGUGCUACACAUCGUAUGUACCGAAUCGGGGUGGGGAGGGGAAAAAAAGGGGAAAGUAUUAUGUUACGCCGUUCGGAUCUGCACUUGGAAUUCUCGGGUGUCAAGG	0.507
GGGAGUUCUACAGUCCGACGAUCUCGGAUGGCUUCGCAUUUCCCCAAUACCCCAUUAAACCGUAUCAUCUGAAGAGGAUCCACAGAGCUGUCUUACAUGGUAAUCUAGAGAAAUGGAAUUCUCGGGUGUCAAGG	1.07
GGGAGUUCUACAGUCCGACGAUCUGGGAGGUGGAUUUUGUUUAUUUUUUUAGCUCAUUUCCAGGGGCGGGAAUUUUUUUUUAAUAUGUGUCAUGAAUAAAGUUGUUUUUGAAAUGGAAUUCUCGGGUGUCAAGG	-0.389
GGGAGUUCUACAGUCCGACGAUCCCUGUGCUACACAUCGUAUGUACCGAAUCGGGUUUUUGGGAAAAAAAGGGUUUUUUUGGGAAAGUAUUAUGUUACGCCGUUCGGAUCUGCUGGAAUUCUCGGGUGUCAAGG	-2.8
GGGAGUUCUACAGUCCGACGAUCAGUCCUGUGCUACACAUCGUAUGUACCGAAUCGGGGUGGGGUUUUUGGGGAAAGGGGAAAGUAUUAUGUUACGCCGUUCGGAUCUGCACUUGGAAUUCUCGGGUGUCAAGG	-0.406
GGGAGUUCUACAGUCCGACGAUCCCUCAAGUCCUGUGCUACACAUCGUAUGUACCGAAUCGGGUGGGGUGGGGUGGAAAGUAUUAUGUUACGCCGUUCGGAUCUGCACUUCCAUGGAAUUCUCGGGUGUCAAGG	-1.47
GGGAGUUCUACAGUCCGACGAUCUCCUGUGCUACACAUCGUAUGUACCGAAUCGGGGUUUUUUGGUUUUUUGGGGUUUUUUGGAAAGUAUUAUGUUACGCCGUUCGGAUCUGCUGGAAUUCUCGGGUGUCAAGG	-0.409

Set 3 — target: CCNF, cyclin fold, Cln2 fusion (human); technique: yeast growth competition, sequencing; sample: yeast; notes: weak parent motif; reference: not given; reading: higher = stronger binding
Starting sequence: PKN2 docking peptide (human); VSAVQKLDFSDTM
Variant	normalised enrichment score
VSAVQKLDLSDTM [F9L]	0.0154
VSAVQKSDFSDTM [L7S]	-0.0655
VSAVQKLDFSDTC [M13C]	0.664
VSAVQKLDFADTM [S10A]	0.614
VSAVQKDDFSDTM [L7D]	-0.922
VSACQKLDFSDTM [V4C]	-0.301
VSAVQKLDFSDIM [T12I]	0.717
VSAVQWLDFSDTM [K6W]	0.247
VSAVQKLDFSDTQ [M13Q]	0.114
VIAVQKLDFSDTM [S2I]	0.311
VSAVQKLRFSDTM [D8R]	0.808

Mixed results
Substance	target	assay	system	setting	scale	quantity	value
PhoQ, residues 284 288 289 292 302 303 TAVSDG	PhoP, residues 12 14 15 18 19 LHSVQ (Escherichia coli, UniProt P23836)	Sort-seq, item: YFP reporter	E. coli	PhoQ-PhoP variant library, together with: 10 µM Mg2+	reference: high Mg2+ state, higher = stronger signaling	fold induction	2.97
